Measured values of several laboratories.
Every numbered part comes from another study and shows a few of its results, in no order. Changes are numbered by the printed parent chain.

Set 1 — target: CCNE2, cyclin fold, Cln2 fusion (human); method: yeast growth competition, sequencing; medium: yeast; notes: strong parent motif; reference: not given; reading: higher = stronger binding
Parent: RBL1 docking peptide (human); GSAKRRLFGEDPP; partner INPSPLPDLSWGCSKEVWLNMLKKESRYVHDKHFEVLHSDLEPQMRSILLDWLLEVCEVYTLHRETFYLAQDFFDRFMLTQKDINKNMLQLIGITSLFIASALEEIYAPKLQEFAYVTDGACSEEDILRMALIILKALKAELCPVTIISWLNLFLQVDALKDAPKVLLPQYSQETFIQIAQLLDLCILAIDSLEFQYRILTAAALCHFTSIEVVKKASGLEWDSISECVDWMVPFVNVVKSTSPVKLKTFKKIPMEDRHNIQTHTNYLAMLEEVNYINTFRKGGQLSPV
Change | normalised enrichment score
E10H | 3.75
S2T | 4.21
L7V | 0.555
L7D | -0.0599
A3F | 3.6
G1E | 4.24
P12N | 3.69
R5C | 0.198
G1P | 4.02
S2F | 2.6
R5E | 0.212
R6I | 2.72
P13I | 4.7
R6F | 1.29
R5W | -0.312
A3D | -0.426
A3W | 2.55
P12A | 4.29

Set 2 — method: RNA Bind-n-Seq; molecule type: RNA; medium: in vitro; tested at: 200 nM; notes: whole 134-nt RNA, ends assumed; with: 150 mM KCl; reference: input library; reading: higher = stronger binding
Target: Fragile X messenger ribonucleoprotein 1, C-terminal low-complexity region (Fmr1, Mus musculus, UniProt P35922)
Constant ends, left off below: GGGAGUUCUACAGUCCGACGAUC … UGGAAUUCUCGGGUGUCAAGG
Oligonucleotide | log2 enrichment
CAAGUCCUGUGCUACACAUCGUAUGUACCGAAUCGGGAAAAAGGGUGGGUUUGGGAAAGUAUUAUGUUACGCCGUUCGGAUCUGCACUUC | 1.03
UGUGCUACACAUCGUAUGUACCGAAUCGUGUGUGUGUGUGUGUGUGUGUGUGUGUGUGUGUGUAAAGUAUUAUGUUACGCCGUUCGGAUC | 0.741
AAGUCCUGUGCUACACAUCGUAUGUACCGAAUCGGUUUUUUUGGUUUUUUUGGUGGAAAGUAUUAUGUUACGCCGUUCGGAUCUGCACUU | -0.849
GUCCUGUGCUACACAUCGUAUGUACCGAAUCGGGGUUUUUUUGGGGAGGGGUUUGGGGAAAGUAUUAUGUUACGCCGUUCGGAUCUGCAC | 0.408
ACCAUGCAGGUGGGCAUCUUUGGGAAGUGGGGCAAGGGGGGGAUAGGGAGGGGGGUAACACUUUGGGAACAGGUGGUCCCAGGUCGAUUC | 0.588
CUCAAGUCCUGUGCUACACAUCGUAUGUACCGAAUCGGAAAGGUUUGGUUUGGAAAGUAUUAUGUUACGCCGUUCGGAUCUGCACUUCCA | -0.436
UCAAGUCCUGUGCUACACAUCGUAUGUACCGAAUCGGGAAAGGGAGGGAAAGGGAAAGUAUUAUGUUACGCCGUUCGGAUCUGCACUUCC | 0.895
UGGCCCUGGUGGCAUGCGGGGAGAAAGAGGUGGCCUCAUGGAUCGUGGUGGUCCCGGUGGAAUGUUCAGAGGUGGCCGUGGUGGAGACAG | 0.0259
CCUGUGCUACACAUCGUAUGUACCGAAUCGGGUUUUUUUGGGUUUUUUUGGUUUUUUUGGAAAGUAUUAUGUUACGCCGUUCGGAUCUGC | -0.249
UCCUGUGCUACACAUCGUAUGUACCGAAUCGGGGAAAAAGGGGAGGGGUUUUUUUGGGGAAAGUAUUAUGUUACGCCGUUCGGAUCUGCA | 0.525
UCCUGUGCUACACAUCGUAUGUACCGAAUCGGGCCCCCCCGGCCCCCCCGGCCCCCCCGGAAAGUAUUAUGUUACGCCGUUCGGAUCUGC | 0.339
AAGUCCUGUGCUACACAUCGUAUGUACCGAAUCGGUUUUUUUGGUUUUUGGAAAGGAAAGUAUUAUGUUACGCCGUUCGGAUCUGCACUU | -1.06
AGUCCUGUGCUACACAUCGUAUGUACCGAAUCGGUUUUUUUGGAAAAAAAGGUUUGGAAAGUAUUAUGUUACGCCGUUCGGAUCUGCACU | -1.63
AGUCCUGUGCUACACAUCGUAUGUACCGAAUCGGAAAAAGGAAAAAGGGAAAAAGGGAAAGUAUUAUGUUACGCCGUUCGGAUCUGCACU | -0.892

Set 3 — method: aptamer microarray, sandwich; molecule type: DNA with 2'F-ANA; medium: in vitro; tested at: 200 nM; with: Cy3 exosite-II aptamer, 400 nM; reading: higher = stronger binding; oligonucleotide: GGTTGGTGTGGTTGG
Target: Prothrombin, mature alpha-thrombin (F2, Homo sapiens, UniProt P00734)
Notes: whole 15-mer aptamer, many near background
Modification | mean fluorescence intensity [a.u.]
2'F-ANA at 2 4 5 7 8 9 10 13 14 15 | 209
2'F-ANA at 1 3 6 7 9 10 11 12 14 | 60.7
2'F-ANA at 1 3 5 7 9 10 12 13 | 48.2
2'F-ANA at 1 6 8 12 13 14 15 | 73.4
2'F-ANA at 4 7 10 12 15 | 131
2'F-ANA at 2 4 5 6 7 9 15 | 63.8
2'F-ANA at 1 2 3 5 6 8 11 12 | 90.6
2'F-ANA at 3 4 5 6 8 9 11 12 13 14 15 | 53.1
2'F-ANA at 1 2 3 5 7 8 9 10 13 | 48.6
2'F-ANA at 2 3 8 10 11 12 13 14 15 | 262
2'F-ANA at 5 7 8 14 | 45.3
2'F-ANA at 3 4 5 7 10 11 12 | 59.7
2'F-ANA at 3 4 5 9 10 12 14 | 46.6
2'F-ANA at 2 3 4 6 9 10 13 | 195
2'F-ANA at 1 2 3 8 10 13 15 | 130

Set 4 — method: universal PBM; molecule type: double-stranded DNA, one strand shown; medium: in vitro; tested at: not given; reading: higher = stronger binding
Target: Sal-like protein 4, full length isoform B (SALL4, Homo sapiens, UniProt Q9UJQ4-2, residues 1-616)
Notes: 8-mer, flanks averaged, mean of replicates
Residues (chain): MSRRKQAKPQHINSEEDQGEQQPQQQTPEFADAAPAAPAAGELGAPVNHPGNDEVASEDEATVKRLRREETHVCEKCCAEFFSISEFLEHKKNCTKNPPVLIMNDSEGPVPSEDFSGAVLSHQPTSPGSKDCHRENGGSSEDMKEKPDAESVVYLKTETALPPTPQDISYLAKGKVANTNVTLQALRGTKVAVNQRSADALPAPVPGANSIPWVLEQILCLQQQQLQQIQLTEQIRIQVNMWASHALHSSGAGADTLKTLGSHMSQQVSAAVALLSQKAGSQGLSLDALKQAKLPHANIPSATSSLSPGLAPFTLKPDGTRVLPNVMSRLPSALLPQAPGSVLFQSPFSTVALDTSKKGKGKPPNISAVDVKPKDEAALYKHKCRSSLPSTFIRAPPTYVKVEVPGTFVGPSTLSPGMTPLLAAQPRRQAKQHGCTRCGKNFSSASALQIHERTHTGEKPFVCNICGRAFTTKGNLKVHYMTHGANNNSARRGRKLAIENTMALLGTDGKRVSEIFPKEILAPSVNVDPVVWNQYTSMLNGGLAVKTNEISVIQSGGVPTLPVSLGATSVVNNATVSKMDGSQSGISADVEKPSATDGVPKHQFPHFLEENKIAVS
Oligonucleotide | E-score
ACTGTAGG | 0.07
ATTTGCGA | 0.196
CAGAAAGG | -0.158
GGTTAACC | -0.192
TGAGTGAA | 0.0262
CCATTTCA | 0.099
AGCTCTTC | -0.14
CTCGTGTA | 0.07
AAAGAGGT | 0.0895
CTACTAGC | 0.0429
GTAAAATA | 0.306
AACGGCAC | -0.164
AGAAGTAG | -0.0266
CCGTATTA | 0.00461
CAGCAGTC | -0.186
CATTTTTC | 0.295

Set 5 — method: RNA Bind-n-Seq; molecule type: RNA; medium: in vitro; tested at: 365 nM; reference: no-protein control; reading: higher = stronger binding
Target: RNA binding protein fox-1 homolog 2, RRM domain, GST-SBP tag (RBFOX2, Homo sapiens, UniProt O43251-10, residues 100-194)
Notes: natural RNA segment, single round, ends assumed
Constant ends, left off below: GGGAGUUCUACAGUCCGACGAUC … UGGAAUUCUCGGGUGCCAA
Residues (chain): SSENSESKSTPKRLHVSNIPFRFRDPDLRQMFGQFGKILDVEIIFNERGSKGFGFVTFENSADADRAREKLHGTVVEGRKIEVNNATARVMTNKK
Oligonucleotide | RBNS enrichment (R)
GAGAACUCACAGAUCUUUAUAUGAGGACAGUGCUGAGGACUUUCUCAUGGCUCCAUCCUUUUGGUCCCUCGCCACUACCCUUGAAGCUGGCUUCAGUUCCCUGGCUGCUG | 0.195
GGCCAGGCUGGACAAAUUCCUGAGGCACAACUUGGCUUCAGUUCAGAUUUCAAGCUGUGUUGGUGUUGGGACCAGCAGAAGGCAAACGUCCAGCCAACACACAGGACUGU | 0.387
GUUCAGUCUAUGAUGGAGAGGGGACCAGGUCAAGGGCCUCAGCCAGAGCAGACCAGGCUGCCUCAGAGCAUACACCUUAUAAUGCAACCCACUUCAGCUGGCUUUGGGGA | 0.419
UAGAGGACAUUGCUUUAAGCCCCAGUUUGUUUGUAGGGUUGAGUAUGAAAAAGCCCAUCUCCUGUGUCCCCAUUGCUCCUUCCCCUUAGCCUCGACAUUUCAAGUUGCGG | 2.93
ACUGGAGUUAAUUGCCCAUUUGGGCUCUUUGUAUAAUUAUGGCAAAGUAGACAUUUAUGUUCUAAUUAAUAUGAUUACAGAGAAGGCUUUUUCUCAGGUCAGGCUUUUCA | 0.262
CCUGAGGGGCACUCAGCCAGCUCUGACCAGGACCCUGUGGCAGACAGAGAGGGCAGCCCGGUCUCCGGCAGCAGCCCCUUCCAGCUCACGGCUUUCUCCGAUGAAGACAU | 0.375
ACUCCCUUUGCUCACUCCAUUCGGGUCCACAGCUGAGGUUGCCGCUGACAAGAUGAAUGGGCACUGCCUGCCCUUCUAGUGAAAAGGCUUGGCUAUGGCCCUGUGUGACU | 0.445
CUGGCCCUGCAAAUGUUUACAGAAAUGAAAUUCUUCCUACUUAUAUAAGAAAUCUCACACUGAGAUAGAAUUGUGAUUUCAUAAUAACACUUGAAAAGUGCUGGAGUAAC | 0.341
GUUAAUCAACCUUCAAACCAGUCUUGAAGCCAGCUACUUGUUUCUUCAUCUCAGACUCCUAGGGGAAUGAAAGCUGUCUUCUGUGAAUGUGCAAGGGUUUGGCUCGUGUC | 1.26
UGGAUUGCCUAACUACACUGCUAAAAAUAUUUGUAAUCCUUAAUAAUUAAACUUUGGAUUUGUUAAAUACUGCCUUGAUGUGAAGGAGGGGAAUUAAGGUUUCCAUAAGG | 0.451
CAGUGAGCUCAGGUGUCUCAAAGAAGGGUGGAAGUUCUAAUGUCUGUUAGCUACCCAUAAGAAUGCUGUUUGCUGCAGUUCUGUGUCCUGUGCUUGGAUGCUUUUUAUAA | 2.87
UCCUCUCUAGCACUUCUCACCACUGAGCCAUCUCUCCAGCCCCAAUAACUUUAUUUUUUAAGACAGGGUUGCAAAUGUUUAAGAAACCAGAAGCAGGUAAAUCUGCCUAU | 0.372

Set 6 — method: protein binding microarray; molecule type: double-stranded DNA, one strand shown; medium: in vitro; tested at: not given; reference: not given; reading: higher = stronger binding
Target: Histone acetyltransferase KAT6A, both winged helices, GST fusion (KAT6A, Homo sapiens, UniProt Q92794, residues 1-181)
Notes: 8-mer, flanks averaged, mean of 2 arrays, mostly near background
Residues (chain): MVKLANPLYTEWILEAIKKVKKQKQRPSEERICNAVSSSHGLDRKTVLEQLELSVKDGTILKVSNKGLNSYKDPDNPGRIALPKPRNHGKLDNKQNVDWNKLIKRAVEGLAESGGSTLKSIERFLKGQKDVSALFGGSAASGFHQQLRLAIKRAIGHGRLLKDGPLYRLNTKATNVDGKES
Oligonucleotide | E-score
GCCAGCAA | -0.149
ACGGACAG | 0.182
CATATAAG | -0.127
CAAGGATC | -0.084
GCAGGTAC | -0.0739
ATCGGAAC | 0.0865
CAGCGAAC | -0.0855
ATCCCTGA | -0.197
GTACCTTA | 0.0376
TGCACCCA | -0.0987
TCATCGCA | -0.00136
ACAATCGG | 0.157
CAAGGTGA | -0.206
CCTGGTCC | -0.197
CCACTAAC | -0.239

A few entries again (set 1):
Change | normalised enrichment score
R5E | 0.212
G1P | 4.02
G1E | 4.24
S2F | 2.6
P12A | 4.29
E10H | 3.75
A3F | 3.6
A3D | -0.426
L7V | 0.555
P13I | 4.7
R6I | 2.72
S2T | 4.21
R5C | 0.198
